Measurements of several laboratories.
Compare with care: the assays were run in different laboratories. Numbers after ± are the reported error.

| SMILES | test | system | setting | Cmax |
| --- | --- | --- | --- | --- |
| Cc1ncc(OC[C@@]2(c3cccc(F)c3)C[C@H]2C(=O)Nc2ccc(F)cn2)c(C)n1 | – | human, plasma | 10 mg, alone, geometric mean | 54.4 ng/mL |
| COC(=O)N[C@H](C(=O)N1CCC[C@H]1C(=O)Nc1ccc([C@@H]2CC[C@@H](c3ccc(NC(=O)[C@@H]4CCCN4C(=O)[C@@H](NC(=O)OC)C(C)C)cc3)N2c2ccc(C(C)(C)C)cc2)cc1)C(C)C | – | healthy human volunteers, plasma | oral, dose not given, with: pravastatin plus 2D regimen | 124 ng/mL |
| CCCCCOc1ccc(-c2ccc(-c3ccc(C(=O)N[C@H]4C[C@@H](O)[C@@H](O)NC(=O)[C@@H]5[C@@H](O)[C@@H](C)CN5C(=O)[C@H]([C@@H](C)O)NC(=O)[C@H]([C@H](O)[C@@H](O)c5ccc(O)cc5)NC(=O)[C@@H]5C[C@@H](O)CN5C(=O)[C@H]([C@@H](C)O)NC4=O)cc3)cc2)cc1 | – | human neonates, plasma | intravenous, 3 mg/kg loading dose | 4000 ng/mL |
| CCCNS(=O)(=O)Nc1ncnc(OCCOc2ncc(Br)cn2)c1-c1ccc(Br)cc1 | – | healthy adult humans, both sexes, plasma | oral, 10/40 mg fixed-dose combination, single dose, fasted | 210 ng/mL |
| CN[C@@H]1C[C@H]2O[C@@](C)([C@@H]1OC)n1c3ccccc3c3c4c(c5c6ccccc6n2c5c31)C(=O)N[C@@H]4O | – | human patients | intravenous infusion, 34 mg/m^2/24 h, 72 h infusion, cycle 1, mean, with: prednisone | 17200 ng/mL |
| COc1ccc(C[C@@H]2NC(=O)[C@H]([C@@H](C)O)NC(=O)[C@@H]3[C@@H]4CCN3C(=O)[C@@H]3Cc5cn(c6ccc(F)cc56)CCCCCCN(Cc5ccc(cc5)CCNC(=O)[C@]5(C)CCCN5C2=O)C(=O)CCC(=O)N[C@@H](C)C(=O)N[C@H](CNC(=O)CCCCC[N+](C)(C)C)C(=O)N[C@@H](Cc2cccc(c2)CNC(=O)CO4)C(=O)N3)cc1 | – | fasted healthy humans, plasma | oral, 300 mg single dose, with 1800 mg Labrasol, geometric mean | 149 nM |
| CC[C@H](C)[C@H](NC(=O)[C@H](CC(C)C)NC(=O)[C@H](Cc1c[nH]c2ccccc12)NC(=O)[C@H](CCC(N)=O)NC(=O)[C@@H](NC(=O)[C@H](Cc1ccccc1)NC(=O)[C@H](C)NC(=O)[C@H](CCCCNC(=O)COCCOCCNC(=O)COCCOCCNC(=O)CC[C@H](NC(=O)CCCCCCCCCCCCCCCCCCC(=O)O)C(=O)O)NC(=O)[C@H](CCC(N)=O)NC(=O)[C@H](C)NC(=O)[C@@H](NC(=O)[C@H](CCCCN)NC(=O)[C@H](CC(=O)O)NC(=O)[C@H](CC(C)C)NC(=O)C(C)(C)NC(=O)[C@@H](NC(=O)[C@H](CO)NC(=O)[C@H](Cc1ccc(O)cc1)NC(=O)[C@H](CC(=O)O)NC(=O)[C@H](CO)NC(=O)[C@@H](NC(=O)[C@H](Cc1ccccc1)NC(=O)[C@@H](NC(=O)CNC(=O)[C@H](CCC(=O)O)NC(=O)C(C)(C)NC(=O)[C@@H](N)Cc1ccc(O)cc1)[C@@H](C)O)[C@@H](C)O)[C@@H](C)CC)[C@@H](C)CC)C(C)C)C(=O)N[C@@H](C)C(=O)NCC(=O)NCC(=O)N1CCC[C@H]1C(=O)N[C@@H](CO)C(=O)N[C@@H](CO)C(=O)NCC(=O)N[C@@H](C)C(=O)N1CCC[C@H]1C(=O)N1CCC[C@H]1C(=O)N1CCC[C@H]1C(=O)N[C@@H](CO)C(N)=O | – | human, normal renal function, plasma | subcutaneous, 5 mg single dose, eGFR ≥ 90 (MDRD), geometric mean | 339 ng/mL |
| CC(=O)C[C@@H](c1ccccc1)c1c(O)c2ccccc2oc1=O | – | healthy human volunteers, plasma | dose not given, given alone | 272 ng/mL |
| COc1ccsc1CNCC[C@@]1(c2ccccn2)CCOC2(CCCC2)C1 | – | healthy human, normal renal function, plasma | intravenous, 1 mg single dose, geometric mean | 8.79 ng/mL |
| CC[C@H](C)[C@H](NC(=O)[C@H](CC(C)C)NC(=O)[C@H](Cc1c[nH]c2ccccc12)NC(=O)[C@H](CCC(N)=O)NC(=O)[C@@H](NC(=O)[C@H](Cc1ccccc1)NC(=O)[C@H](C)NC(=O)[C@H](CCCCNC(=O)COCCOCCNC(=O)COCCOCCNC(=O)CC[C@H](NC(=O)CCCCCCCCCCCCCCCCCCC(=O)O)C(=O)O)NC(=O)[C@H](CCC(N)=O)NC(=O)[C@H](C)NC(=O)[C@@H](NC(=O)[C@H](CCCCN)NC(=O)[C@H](CC(=O)O)NC(=O)[C@H](CC(C)C)NC(=O)C(C)(C)NC(=O)[C@@H](NC(=O)[C@H](CO)NC(=O)[C@H](Cc1ccc(O)cc1)NC(=O)[C@H](CC(=O)O)NC(=O)[C@H](CO)NC(=O)[C@@H](NC(=O)[C@H](Cc1ccccc1)NC(=O)[C@@H](NC(=O)CNC(=O)[C@H](CCC(=O)O)NC(=O)C(C)(C)NC(=O)[C@@H](N)Cc1ccc(O)cc1)[C@@H](C)O)[C@@H](C)O)[C@@H](C)CC)[C@@H](C)CC)C(C)C)C(=O)N[C@@H](C)C(=O)NCC(=O)NCC(=O)N1CCC[C@H]1C(=O)N[C@@H](CO)C(=O)N[C@@H](CO)C(=O)NCC(=O)N[C@@H](C)C(=O)N1CCC[C@H]1C(=O)N1CCC[C@H]1C(=O)N1CCC[C@H]1C(=O)N[C@@H](CO)C(N)=O | – | human, severe hepatic impairment, plasma | subcutaneous, 5 mg single dose, geometric LSM, weight-adjusted | 510 ng/mL |
| CC(C)c1nc(CN(C)C(=O)N[C@H](C(=O)N[C@@H](Cc2ccccc2)C[C@H](O)[C@H](Cc2ccccc2)NC(=O)OCc2cncs2)C(C)C)cs1 | – | healthy human volunteers, plasma | oral, dose not given, alone, escitalopram interaction study | 1170 ng/mL |
| O[C@H]1CCCN[C@@H]1CCCn1cnc2c(Cl)c(Cl)ccc21 | – | healthy human volunteers, plasma | oral, 25 mg, day 1, multiple ascending dose | 26.6 ng/mL |
| Oc1ccc2cc3ccc4cccc5ccc(c2c1)c3c45 | UPLC-AMS | human, plasma | oral, 50 ng of [14C]-BaP | 1.9 ± 2.28 fg BaP equivalents/mL |
| CC[C@@]1(O)C(=O)OCc2c1cc1n(c2=O)Cc2cc3c(CN(C)C)c(O)ccc3nc2-1 | – | human patients, plasma | oral, 8 mg weekly, geometric mean, with: pazopanib 800 mg daily | 46.8 ng/mL |
| C[C@@H](c1nc(-c2ccc(C#N)cc2)cs1)[C@](O)(Cn1cncn1)c1cc(F)ccc1F | – | human, both sexes, plasma | oral, 200 mg QD, day 12, with: midazolam 3 mg | 5000 ng/mL |
| CN1CC(=O)N2[C@H](c3ccc4c(c3)OCO4)c3[nH]c4ccccc4c3C[C@@H]2C1=O | – | healthy adult humans, both sexes, plasma | oral, 10/40 mg fixed-dose combination, single dose, fasted | 545 ng/mL |
| CC(C)[C@H](N)C(=O)NCCCS(=O)(=O)O | – | human, plasma | oral, 265 mg tablet twice daily, day 7, fed, multiple dosing | 6460 ± 1800 ng/mL |
| CCCCCOc1ccc(-c2cc(-c3ccc(C(=O)N[C@H]4C[C@@H](O)[C@@H](O)NC(=O)[C@@H]5[C@@H](O)[C@@H](C)CN5C(=O)[C@H]([C@H](O)CC(N)=O)NC(=O)[C@H]([C@H](O)[C@@H](O)c5ccc(O)c(OS(=O)(=O)O)c5)NC(=O)[C@@H]5C[C@@H](O)CN5C(=O)[C@H]([C@@H](C)O)NC4=O)cc3)no2)cc1 | – | human paediatric patients 2 to 5 years, plasma | intravenous, 4.5 mg/kg once daily, day 7, geometric mean | 20100 ng/mL |
| Cc1cnc(C(=O)N[C@H]2CCCCC/C=C\[C@@H]3C[C@@]3(C(=O)NS(=O)(=O)C3CC3)NC(=O)[C@@H]3C[C@@H](Oc4nc5ccccc5c5ccccc45)CN3C2=O)cn1 | – | healthy human volunteers, plasma | oral, dose not given, with: warfarin plus 2D regimen | 1080 ng/mL |
| Cc1ncc2n1-c1ccc(Cl)cc1C(c1ccccc1F)=NC2 | – | human, plasma | intravenous, 10 µg, microdose, baseline, geometric mean | 0.155 ng/mL |
| Oc1ccc2ccc3c4ccccc4cc4ccc1c2c43 | UPLC-AMS | human, plasma | oral, 50 ng of [14C]-BaP | 3.12 ± 2.83 fg BaP equivalents/mL |
| CCC(=O)C(CC(C)N(C)C)(c1ccccc1)c1ccccc1 (stereo not shown) | – | human, plasma | oral, 40 mg, day 9, steady state, dose-normalized, with: fesoterodine 600 mg ER twice daily | 415 ng/mL |

A few entries again:
| SMILES | test | system | setting | Cmax |
| --- | --- | --- | --- | --- |
| Oc1ccc2ccc3c4ccccc4cc4ccc1c2c43 | UPLC-AMS | human, plasma | oral, 50 ng of [14C]-BaP | 3.12 ± 2.83 fg BaP equivalents/mL |
| CC[C@H](C)[C@H](NC(=O)[C@H](CC(C)C)NC(=O)[C@H](Cc1c[nH]c2ccccc12)NC(=O)[C@H](CCC(N)=O)NC(=O)[C@@H](NC(=O)[C@H](Cc1ccccc1)NC(=O)[C@H](C)NC(=O)[C@H](CCCCNC(=O)COCCOCCNC(=O)COCCOCCNC(=O)CC[C@H](NC(=O)CCCCCCCCCCCCCCCCCCC(=O)O)C(=O)O)NC(=O)[C@H](CCC(N)=O)NC(=O)[C@H](C)NC(=O)[C@@H](NC(=O)[C@H](CCCCN)NC(=O)[C@H](CC(=O)O)NC(=O)[C@H](CC(C)C)NC(=O)C(C)(C)NC(=O)[C@@H](NC(=O)[C@H](CO)NC(=O)[C@H](Cc1ccc(O)cc1)NC(=O)[C@H](CC(=O)O)NC(=O)[C@H](CO)NC(=O)[C@@H](NC(=O)[C@H](Cc1ccccc1)NC(=O)[C@@H](NC(=O)CNC(=O)[C@H](CCC(=O)O)NC(=O)C(C)(C)NC(=O)[C@@H](N)Cc1ccc(O)cc1)[C@@H](C)O)[C@@H](C)O)[C@@H](C)CC)[C@@H](C)CC)C(C)C)C(=O)N[C@@H](C)C(=O)NCC(=O)NCC(=O)N1CCC[C@H]1C(=O)N[C@@H](CO)C(=O)N[C@@H](CO)C(=O)NCC(=O)N[C@@H](C)C(=O)N1CCC[C@H]1C(=O)N1CCC[C@H]1C(=O)N1CCC[C@H]1C(=O)N[C@@H](CO)C(N)=O | – | human, normal renal function, plasma | subcutaneous, 5 mg single dose, eGFR ≥ 90 (MDRD), geometric mean | 339 ng/mL |
